Measurements gathered from unrelated publications.
Each numbered part is a random draw from the data of one study; scales do not carry over between parts.

Set 1 — method: protein-binding microarray; form: double-stranded DNA, one strand shown; medium: in vitro; concentration: 2540 nM top; notes: 60-bp whole probe; together with: salmon DNA 0.4 mg/ml; reference: random background probes; direction: higher = stronger binding; endpoint: fitted relative affinity; constant ends, left off below: GCCTAGCAC … GTCTTGATTCGCTTGACGCTGCTG
Target: Interferon regulatory factor 3, full length, phosphomimetic (IRF3, Homo sapiens, UniProt Q14653, residues 1-427, S386D/S396D/S398D/S402D/T404D/S405D)
UniProt Q14653, sequence (whole entry, unmodified, looked up): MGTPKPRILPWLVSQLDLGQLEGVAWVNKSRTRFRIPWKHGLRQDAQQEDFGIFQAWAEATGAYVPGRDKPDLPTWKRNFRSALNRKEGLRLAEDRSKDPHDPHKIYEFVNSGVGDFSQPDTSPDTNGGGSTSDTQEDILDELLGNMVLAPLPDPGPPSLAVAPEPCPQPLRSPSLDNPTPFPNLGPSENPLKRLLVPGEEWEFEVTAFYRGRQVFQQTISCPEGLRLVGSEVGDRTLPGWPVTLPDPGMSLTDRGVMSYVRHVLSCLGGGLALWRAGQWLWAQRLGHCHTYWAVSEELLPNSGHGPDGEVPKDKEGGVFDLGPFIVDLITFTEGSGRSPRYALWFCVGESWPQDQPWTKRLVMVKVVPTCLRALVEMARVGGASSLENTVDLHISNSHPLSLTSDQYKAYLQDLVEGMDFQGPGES
TATTACCTCATCTTCCTCTGCGTGCTA: 0.934 z-score
TCACTTTTGAGAGATGGAACTGTGCTA: 0.713 z-score
TTAGATTCCGGGTATCGATTAGTGCTA: 1.3 z-score
TTGTATCTGGGTTCCCCCCCGTGCTAG: 0.142 z-score
CCTCACTTCCTTCTGCCTGTGTGCTAG: 0.571 z-score
GACGGTCTCGATTTCGGGACGTGCTAG: 1.94 z-score
GACGGACTTGGACTGGGGACGTGCTAG: -0.68 z-score
GACGATTTCGGGTTTCGAGACGTGCTA: 2.87 z-score
TTATATATCAGTATCGATTAGTGCTAG: 1.91 z-score
TTAGGACTGGGACTGGGATAGTGCTAG: -0.646 z-score
TTAGAACTGGGGTATCGCTTAGTGCTA: -0.649 z-score
TCATTTGTTTTTTTCTAACTGTGCTAG: 1.63 z-score
TTAGAACTGTGTATCGATTAGTGCTAG: 0.148 z-score
TTCGATTTCGGGACTGGATTAGTGCTA: 2.24 z-score
GACGGTCTCCTTATCGTGACGTGCTAG: 3.22 z-score
ACCATTTTGTTTTTCATTATGTGCTAG: 3.6 z-score
TTATGACTGGGTTTCGGTTAGTGCTAG: 3.23 z-score
CTCAAGATTCCTCTCACCTCGTGCTAG: 0.359 z-score
GTCGGACTGCTACTGCTGACGTGCTAG: -0.154 z-score
GACGATTTCAGACTTGAGACGTGCTAG: 1.82 z-score

Set 2 — method: aptamer microarray, sandwich; form: DNA with 2'F-ANA; medium: in vitro; concentration: 200 nM; together with: Cy3 exosite-II aptamer, 400 nM; direction: higher = stronger binding; endpoint: mean fluorescence intensity; sequence: GGTTGGTGTGGTTGG
Target: Prothrombin, mature alpha-thrombin (F2, Homo sapiens, UniProt P00734)
Notes: whole 15-mer aptamer, many near background
2'F-ANA at 1 3 9: 297 a.u.
2'F-ANA at 1 2 5 6 10 11 12 13: 49.6 a.u.
2'F-ANA at 3 4 6 7 8 9 10 12 13: 307 a.u.
2'F-ANA at 3 4 5 7 8 10 12 14 15: 57.4 a.u.
2'F-ANA at 1 5 6 11 12 14: 45.7 a.u.
2'F-ANA at 1 3 4 6 10 12 15: 85.2 a.u.
2'F-ANA at 1 6 7 8 9 10 11 12 13 14 15: 50 a.u.
2'F-ANA at 1 2 4 5 9 10 11 14 15: 48.4 a.u.
2'F-ANA at 2 3 4 6 7 9 10 11 14: 432 a.u.
2'F-ANA at 3 5 7 8 10: 79.7 a.u.
2'F-ANA at 2 3 4 7 8 9 10 11 12 14: 171 a.u.
2'F-ANA at 3 6 7 8 11 13 15: 884 a.u.
2'F-ANA at 2 5 6 7 9 11 12 14: 139 a.u.
2'F-ANA at 1 2 3 10 11 12 13 14 15: 55.3 a.u.
2'F-ANA at 3 4 6 8 11 12: 899 a.u.
2'F-ANA at 1 2 3 4 5 6 7 15: 63.2 a.u.
2'F-ANA at 1 2 3 4 6 8 12 15: 391 a.u.
2'F-ANA at 3 7 13: 993 a.u.
2'F-ANA at 1 4 11 14: 47.3 a.u.
2'F-ANA at 1 2 5 6 7 9 11 12 13 15: 68.7 a.u.
2'F-ANA at 2 6 7 8 9 10 12 13 15: 135 a.u.
2'F-ANA at 3 7 9 12 13: 1230 a.u.
2'F-ANA at 2 3 5 7 10 11 14: 48.8 a.u.
2'F-ANA at 1 5 6 9 10 11 12 14: 43.6 a.u.
2'F-ANA at 1 6 8 10 12 13: 65.4 a.u.

Set 3 — method: RNA Bind-n-Seq; form: RNA; medium: in vitro; concentration: 365 nM; reference: no-protein control; direction: higher = stronger binding; endpoint: RBNS enrichment (R)
Target: RNA binding protein fox-1 homolog 2, RRM domain, GST-SBP tag (RBFOX2, Homo sapiens, UniProt O43251-10, residues 100-194)
Notes: natural RNA segment, single round, ends assumed
Constant ends, left off below: GGGAGUUCUACAGUCCGACGAUC … UGGAAUUCUCGGGUGCCAA
Target sequence (chain): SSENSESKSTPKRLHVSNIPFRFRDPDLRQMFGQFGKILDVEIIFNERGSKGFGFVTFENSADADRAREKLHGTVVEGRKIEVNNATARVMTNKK
UCCUUCCCUCCCUUCCUCUCCCACCAUGCGAUGAGCAUCCUUUCAGGCCAGUGUCUGCAGAGCCUCAGUUACCAGGUUUGGUUUCUGAGUGCCUAUCUGUGCUCUUUCCU: 0.64
GUUGAGUUUUGCAUAAACACAAACUGUUCAUCCACAGCACUGCUCAAUCUCCUUCUAUCCCUCCUCCCCAAGCAGUCAGGUUAUGGGCUAUGGCCCUAUGUCACUCUGCC: 0.212
AAGCUGAAAUUGCGUUCUAAGAGGUGAAGUGAUUUUUUUUCUGAAACUCACACAACUAGGAAGUGGCUGAGUCAGGACUUGAACCCAGGUCUCCCUGGAUCAGAACAGGA: 0.37
CAUUUUAAGCAAAGGAAAAGUCUUGGGAUUGUAUGGGAAUAAAACUUGUUUGAAAAUUUGGAAUAGUGCUGCUGUCAGCUUAUUUUUCUGGUACUUGUAUUUUCUAUGUU: 1.94
CUGUCUGAUCGUGAAGCACCUGAAUUUACAGAAGAUGCAGAAAGCCUCGUUUUCUCUGCGUGGUUCAGCUACUUUCCAUUUGGUAUUAUGCACUCAAACUUAACAUUUAU: 0.411
CACAGUUUUAAGAGUUGUAUGAACAUGGAGAGGACUUUUGGUUUUUAUAUUUCUCGUAUUUAAUAUGGGUGAACACCAACUUUUAUUUGGAAUAAUAAUUUUCCUCCUAA: 0.838
GGUUUGGGUAUUGUGUUUCUGGUCUUUUAACUCAAAAUUAAGGUUUGAGCUUUAAUAGGACUAAAUUAUUCACCUGCCUUGGCCUGUGCCUUUAUUUUAAAUACUGCAAU: 0.524
UCUGGUGGACUAGGCAAGGUACAGUUUAUGGUUAUCCCCAUCAUCAGCUUAGGUCACUUGAACAUGUGUAAGUGGUAUAAGUAGGAGCUAAAUGCCAGGAGGAAAAAGGU: 0.984
CAGACCGGCUGACCACUCCUUUUGGAGACGGCAGGAGGCCUGAGCGAUCCGUACUCAGAACGUCCAGGAGAGACGCAUGGCCCGAAGUCAAAGUGCUGGAAUUUUCCAAA: 3.03
ACUGUACAAUUUCUUGGGGUUAACCAUCUUUAGUUAAAUGGAAUUUUAAUUUAAAUGACGCUUUGCUAAUUUUAAGUGUUAAGCAUUUUGCAUUAAAAUAUUCAUAUAAU: 0.87
CUUUUCUUGUUGAACUUCUUGGAAAAGCCACCAAUUCUAGAUCUUGAUUUGAAUUAAUACACACAAUAUCUGAGACACUUACACUUUUCAAAAGAUUUGUGUAUGCAUUG: 0.496
UCCUAACCCAUUUCAUCUCGGUUCUGUAUGGGUUUUUCCCGUGCAUGGAAGGGAGGCAGCUCAGGGACCACCAUUGUGGAGCCUUUGAGACCUCUCUGAUUCAGAAACAC: 0.814

Set 4 — method: protein binding microarray; form: double-stranded DNA, one strand shown; medium: in vitro; concentration: not given; reference: not given; direction: higher = stronger binding; endpoint: E-score
Target: Histone acetyltransferase KAT6A, winged helix 2, GST fusion (KAT6A, Homo sapiens, UniProt Q92794, residues 85-181)
Notes: 8-mer, flanks averaged, mean of 2 arrays, mostly near background
Construct (chain): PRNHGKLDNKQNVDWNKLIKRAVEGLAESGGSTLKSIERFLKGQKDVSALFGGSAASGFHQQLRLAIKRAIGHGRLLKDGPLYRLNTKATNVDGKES
ACCGTAGT: -0.242
GCTGACCC: -0.0297
TATTTTAA: -0.015
ACGGCTAT: -0.168
AGCCCTCG: -0.0532
CAGAGGCC: -0.0981
AGCACCAT: -0.179
ATACCGCG: 0.0524
ATGTATGG: -0.0565
CGTGCAGC: -0.0293
ACATACCC: -0.075
CCCAACAA: 0.0139
CCAACCGC: 0.093
GCAATCAC: 0.0125
ATTTGGAA: 0.0306
CCCCCCGG: 0.114
GGCGAGGA: 0.167
CAGCTGAG: -0.000455
CAGCTCCA: -0.0105
CGGACACG: 0.17
ATGCTAAT: 0.0108
GTCGCGCA: 0.0184
CCATTCGC: -0.0699
ACTATTAG: -0.03
AACATATT: -0.0869

Set 5 — method: universal PBM; form: double-stranded DNA, one strand shown; medium: in vitro; concentration: not given; direction: higher = stronger binding; endpoint: E-score
Target: Sal-like protein 4, full length isoform B (SALL4, Homo sapiens, UniProt Q9UJQ4-2, residues 1-616)
Notes: 8-mer, flanks averaged, mean of replicates
Construct (chain): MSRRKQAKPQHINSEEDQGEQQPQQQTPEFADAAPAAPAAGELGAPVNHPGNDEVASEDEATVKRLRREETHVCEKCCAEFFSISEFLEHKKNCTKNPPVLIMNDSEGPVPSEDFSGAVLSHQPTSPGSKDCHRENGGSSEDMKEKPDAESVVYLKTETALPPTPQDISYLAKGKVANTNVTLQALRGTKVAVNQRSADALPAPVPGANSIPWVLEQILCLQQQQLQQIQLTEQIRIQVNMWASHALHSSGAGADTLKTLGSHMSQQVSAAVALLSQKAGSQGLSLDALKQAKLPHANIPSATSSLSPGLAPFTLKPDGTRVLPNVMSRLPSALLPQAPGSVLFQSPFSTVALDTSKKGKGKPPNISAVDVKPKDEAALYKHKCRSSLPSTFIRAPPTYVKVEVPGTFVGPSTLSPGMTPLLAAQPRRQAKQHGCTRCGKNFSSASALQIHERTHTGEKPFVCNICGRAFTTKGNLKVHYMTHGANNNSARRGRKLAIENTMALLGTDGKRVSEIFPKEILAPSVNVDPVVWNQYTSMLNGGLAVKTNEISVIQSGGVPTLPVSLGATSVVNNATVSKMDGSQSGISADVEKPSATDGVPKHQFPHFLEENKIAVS
GGACGCAC: -0.26
CGAGGTAA: -0.123
ATAAAGCC: 0.0894
CCCAACTA: 0.0618
ACACATAG: 0.225
GAGACATC: -0.138
CCGACACC: -0.229
AATTTGTA: 0.292
CGTCGCGC: -0.239
ATAAACAA: 0.357
AATTTTCT: 0.191
CCTTACAC: 0.0503
ACGTAGCA: -0.0206
AGAGAAAC: 0.0461
AACTACCG: -0.124
CACAACTA: 0.132
GTCACAAA: 0.0251
ATTCGAGG: -0.0267
ACCTGCAG: -0.16
GACGCAGC: -0.186
CCTATTAA: 0.206
CCAGTAAC: -0.0565
CATCCACA: 0.0674
GAGCGGCC: -0.398
GAATGTGA: 0.0433

For quick reference, copied from above (set 2):
2'F-ANA at 3 4 6 7 8 9 10 12 13: 307 a.u.
2'F-ANA at 2 5 6 7 9 11 12 14: 139 a.u.
2'F-ANA at 1 5 6 9 10 11 12 14: 43.6 a.u.
2'F-ANA at 3 7 13: 993 a.u.
2'F-ANA at 3 4 5 7 8 10 12 14 15: 57.4 a.u.
2'F-ANA at 3 5 7 8 10: 79.7 a.u.
2'F-ANA at 3 7 9 12 13: 1230 a.u.
2'F-ANA at 1 3 4 6 10 12 15: 85.2 a.u.
